Results collected from several papers.
Lines come from different studies, so protocols differ. ± gives the spread as reported.
Technique: steady-state kinetics
B1: mdlD (Pseudomonas putida, UniProt Q84DC3); chain MNYLSPAKIDSLFSAQKAYFATRATADVGFRKQSLERLKEAVINNKEALYSALAEDLGKPKDVVDLAEIGAVLHEIDFALAHLDEWVAPVSVPSPDIIAPSECYVVQEPYGVTYIIGPFNYPVNLTLTPLIGAIIGGNTCIIKPSETTPETSAVIEKIIAEAFAPEYVAVIQGGRDENSHLLSLPFDFIFFTGSPNVGKVVMQAAAKHLTPVVLELGGKCPLIVLPDADLDQTVNQLMFGKFINSGQTCIAPDYLYVHYSVKDALLERLVERVKTELPEINSTGKLVTERQVQRLVSLLEATQGQVLVGSQADVSKRALSATVVDGVEWNDPLMSEELFGPILPVLEFDSVRTAIDQVNKHHPKPLAVYVFGKDMDVAKGIINQIQSGDAQVNGVMLHAFSPYLPFGGIGASGMGEYHGHFSYLTFTHKKSVRIVP
B2: enzyme (Haliscomenobacter hydrossis, UniProt F4KU78); chain MKQKPAFIPYAGAQFEPEEMLSKSAEYYQFMDHRRTVREFSNRAIPLEVIENIVMTASTAPSGAHKQPWTFVVVSDPQIKAKIRQAAEKEEFESYNGRMSNEWLEDLQPFGTDWHKPFLEIAPYLIVVFRKAYDVLPDGTQRKNYYVQESVGIACGFLLAAIHQAGLVALTHTPSPMNFLQKILQRPENERPFLLVPVGYPAEGAMVPDLQRKDKAAVMVVY
B3: enzyme (Azotobacter vinelandii, UniProt C1DN94); chain MSESPLRLDRLRDFVSALGELLDRHPDEESVLREGRSLLGELVRHDDWLPEEFAQPDPERYQQYLLHADSRQRFSVVSFVWGPGQTTPVHDHRVWGLIGMLRGAEDAQSFELGAEGLRPIGDPVRLSPGQVEAVSPRIGDIHRVFNASPDQPSISIHVYGANIGAVRRAVYLPDGSEKPFISGYSNQFLPNIWDQSKESARP
B4: enzyme (UniProt A0A0P0CH59); chain MRIALFSDIHANLPALEAVLANMETQQLDAIYCLGDLVGYAPWPNEVVAEIRKRRIPTIAGNYDEGVGLWSPNCGCAYKTDTEKDLGQQSIDFTNNVVTEETRKYLRMLPRQLRLTFMDGSKEENKIELLLVHGSPRKINEYLFEDRPEKSFLKMMEEANADLLFFGHTHKPYHRAMPYEHEGQTRYRHAINIGSVGKPKDGDPRTGYVVVELTPESSLTQKDSIKVEFIRVPYDVETAAQAVEASPLPNEFAQMLRTA
B5: enzyme (Parabacteroides distasonis, UniProt A0A7L5EB83); chain QSETNRLDSIMPVRGLAIAAPSAQKLDLFLKFVQEELAPSHFNLLILRVDWNYAYESHPELRDPTPLTREDVKKIVKVCRDNGIRIAPQINLLGHQSWAETTYALLREYPEFDETPHVDTKNYTGWPNSDGLYCKSYCPLHPEVHKIVFALVDELTDVFETQLFHAGMDEVFYIGHDSCVRCGGHDKAELYAGEVTKIQNHLASQGKRLMIWGDRLIDGKTTGIGAWEASMNNTYRAIDLIPKDVFICDWHYERAEQTAVYFAMKGFDVATCPWRKPQIALQQVDDMIHFRQHSNPEMSRHFQGIIETVWSGTDSFLEAYYNPTTYKQEVSDAVTVKKLIEKYKALENR
B6: acsA (Pseudomonas chlororaphis, UniProt Q5CD72); chain MRDYEHVVESFDYLQSATQDLHGELTALNACVECCDRHAHGEAVALYCEAQDGHAERYRFRDLQRQAARFGNFLREQGVKPGDRVAGLMPRTVELLIAILGTWRIGAVYQPLFTAFGPKAIEQRLNCSNARWIVTDPHNRPKLDDVTDCPSIVVTGGAPQNPADHHFWSALNRQADDCAPVLLDASAPFLLMCTSGTTGPAKPLEVPLSAILAFKGYMRDAIDLRADDRFWNLADPGWAYGLYYAVTGPLACGYATLFYDGPFTVESTRHIIAKYAINNLAGSPTAYRFLIAAGAEFADAVRGRLRAVSSAGEPLNPQVVRWFAEQLGVVIHDHYGQTEIGMVLCNHHGLRHPVREGSAGYAVPGYRIVVLDKAHRELPAGQPGVLAVDRERSPLCWFDGYLGMPTQAFAGRYYLSGDIVELNDDGSISFVGRNDDLITTSGYRVGPFDVESALIEHPAVVEAAVIGKPDPQRTELIKAFVVLNTPYLPSPELAEELRLHVRQRLAAHAYPREMEFVDHLPKTPSGKLQRFILRNQEIAKQQALG
B7: enzyme (Plasmodium falciparum, UniProt C0H484); chain MVREAHELLDGSRPIPIDKITYELSQNIILAFDNHENINNKDIQIEIEGRVGLVIDKNKNRIKLPINTDAIIENNYSDFQAGIDRESFEYLLDYFHNMTLKKRLSIRNNDNNNNNMDNNNNNMDNNNNIHIHNSGNNTNQTHSYDKNADDNKPTCNYSYDKKNACIYDFLELKTTKSIDKYYVIKNNNSRIRTTTYLNDDNKQETESMMIQSLQKDNLNIWNVYTGNNYDYFDDDEEDDDDDYNNNNNNNNGDTGTKTNIATNNTHGLTTSKSQHIYNNLVDKNDSIDYRISINIEYTKPISKLYLSKNTPVHERLKERTTFINTYLGLQVDMTKIKTKNNELYEVEIEIPSKTIFKAMSNLRNKKDSNYLHFICSNLVNNIRGICSQLNVFKKSKHMLKNTMITKLNNNSNNQNNLSLLPNHPNDDTISSKEKEKFKKYIHSVLPIVGDY
B8: enzyme (UniProt A0A6P1C6J0); chain PEFDITVVIPTFKAEKTVGQCLESVLSQQGVSTEIIVVDGGSPDATISIVQSFSSTNLTIISEPDRGIYDAINKGVSRAQGGMIGVLGADDVYKPNVLSVVKENASRGVEIVAGLTLIDGQLRADEQYRPAALISGIPFGHNAMFASQEAYRKVGLYDLAYRICADAEWVHRAIKSDISCRKVEQVFVEFGTEGTSSTNPEEIIAEACSVIQRNFPFLLKEEAKYLLYGVRGWGETSRIEQILRKYGHESVLFVTALQEAFPAVET
B9: enzyme (Lactiplantibacillus plantarum, UniProt Q06115); chain CTAITYQSYNNYFGRNFDYEISYNEMVTITPRKYPLVFRKVENLDHHYAIIGITADVESYPLYYDAMNEKGLCIAGLNFAGYADYKKYDADKVNITPFELIPWLLGQFSSVREVKKNIQKLNLVNINFSEQLPLSPLHWLVADKQESIVIESVKEGLKIYDNPVGVLTNNPNFDYQLFNLNNYRALSNSTPQNSFSEKVDLDSYSRGMGGLGLPGDLSSMSRFVRAAFTKLNSLSMQTESGSVSQFFHILGSVEQQKGLCEVTDGKYEYTIYSSCCDMDKGVYYYRTYDNSQINSVSLNHEHLDTTELISYPLRSEAQYYAVN
B10: enzyme (Chlamydomonas reinhardtii, UniProt A0A2K3D977); chain ASDSVLAVWRKADAVCFDVDCTITVNDSLDLLAEFMGVKEQVEILTNKAMDGSLSLEQALEERLNIINCSPDDIKRFIKAHPPASRMAPGIKELINSLQARGKAIYLISGGFRELTLPIAAYLGIPKENVFANRMNWQWDDETGMPTKLVGFDMSEPTAHNQGKPQAIARIRQRNPYNTVVMIGDGITDLEAVQTTGGADLFIGSGVVVERPAVAREADWYVYDYTDLLRTMARYSVAMVGSGAWACAAVRMIAQNTQVDDAADEFVDEVRMWVYEEDFEGKKLTEVINQTHTNPKYFPGFDLGPNVVAVPNIVDAVADADLIVFCAPHQFLHHICKQLVGKIKPGAAAISLTKGMRVRPEGPQLISQMVRRLLGIDCCVLMGANIATDIGREQLSEAVIGYDNLDAATLFQKIFQRPYFRVNLLPDPVGAEMCGTLKNIVALGAGMVDGLGLGPNSKAAIIRQGLVEMRAFSKALYPSVRDDTFMESCGVGDLVATCYGGRNRLVACEWTKAQMEGKPRTFEDLETDLLKGQKLQGVLTSNEVQEILKVRGWESQYPLFTTVNRIINGYLPPKYVVEFVAGAKYHIRRPGTDDEEIVPVRPKRPAAAGGVATAPILAA
B11: enzyme H476A (Methanosarcina mazei, UniProt Q8PVB1); chain MSEQRSVPLREHLLALKPCRHGGLIQETSETYGIPENEILDFSANFNPLGSPFDYPENGLNFEDIIKKSCGKLLEYPDNRYVEFREAAARFVGLGVTPQSIVPGNGSTEIVRLVVESVIEKGDKVLLPWPTFGEYEMQCRITGAEPVCPSQEEVNTLPDEVLEEAKILFICNPNNPTGKLRTREELKVLAERCREHKTLLYVDEAFIELSDPSQSVADLPAENNYVFVMRSLTKDFAIPGIRMGFGIAPPAMADILNTARLSWNLGAIANNTGIALLNIEGGIDSPYLKKAREMILKEGETLKAKIDRIRGFEAGEVNVNFILVDVSKFMLNSSELTARLAARGVLVRDCVSFHGLGKNYIRVAVRTEKENDRLIAAIGDVITEWGREQAKNELQHVIEKASEEGIGGRKTCEYYPCHFEGQNCTFCFCPFYPCENEKTGGKWIQSSRGGRVWSCVDCHLVHKKEIAQKILDCLMAEGDTDELVKVAWKEVMEPIL
B12: enzyme (Myxococcus xanthus, UniProt Q1DB04); chain MSFINYSSREINCKIVYYGPGLCGKTTNLQYIYNKTAAETKGKLISLSTETDRTLFFDFLPLSLGEIRGFKTRFHLYTVPGQVFYDASRKLILKGVDGVVFVADSQIERMEANMESLENLRINLAEQGYDLNKIPYVIQYNKRDLPNAVTVEEMRKALNHRNIPEYQAVAPTGVGVFDTLKAVAKLVLTELKKGG
B13: bjaI (Bradyrhizobium diazoefficiens, UniProt Q89VI2); chain MIHAISAVNRHLYEDVLEQHFRLRHDIFVEERHWETLRRPDGREVDSYDDEDTVYLLALEGRRVVGGHRLYPTTKPSMMSEVFPHLAAVRGCPSDPLIWEWSRYFVVRDRRDGALNLQLMAAVQEFCLDQGIAQVSAIMETWWLPRFHEAGFVVTPLGLPALVENAWTMAATVDIRRQTLDVLHDRIGMPSIVQQDGPRLDAVARANLCGLAAAQRKSA
B14: enzyme (Kluyveromyces lactis, UniProt Q6CSZ6); chain MSSLDINEQRALIKSAHRYISEKLEDHFSSEFLPKALVICGSGLSGISTKIADEPKPLILSYSTIPGFKVSTVPGHSGELIFGYMNGAPVVLMNGRLHSYEGHSLAETVHPIRALHLLGSINVLIVTNAAGGINASFKAGDLMCVYDHINFPGLCGFHPLRGANFDEFGPRFLATSDAYDLELRKLLFSKKKELNIERKIHEGTYSYVHGPTFESRAESRFLRLAGTDAVGMSTVPEVVTARHCGWRVLALSLITNECVVDPPASAHDENPVPIQEGKATHEEVLENSAKASKDVQELIFSVVAEI
UniProt P52961, sequence (whole entry, looked up): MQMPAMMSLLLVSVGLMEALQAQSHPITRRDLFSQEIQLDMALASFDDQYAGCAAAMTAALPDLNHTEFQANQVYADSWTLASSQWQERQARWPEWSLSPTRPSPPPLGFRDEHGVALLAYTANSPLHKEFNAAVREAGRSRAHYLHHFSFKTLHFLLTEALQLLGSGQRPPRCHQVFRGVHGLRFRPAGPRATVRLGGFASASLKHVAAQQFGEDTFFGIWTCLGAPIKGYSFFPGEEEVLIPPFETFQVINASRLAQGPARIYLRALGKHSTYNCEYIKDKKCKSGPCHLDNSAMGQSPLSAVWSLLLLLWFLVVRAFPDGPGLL

`B1 (mdlD)` has a kcat of 120 ± 2.63 s⁻¹ (NC(=O)c1ccc[n+]([C@@H]2O[C@H](COP(=O)(O)OP(=O)(O)OC[C@H]3O[C@@H](n4cnc5c(N)ncnc54)[C@H](O)[C@@H]3O)[C@@H](O)[C@H]2O)c1; pH 7.4, 30 °C, cofactor varied).
`B2 (enzyme)` has a kcat of 0.28 ± 0.03 s⁻¹ (N[C@@H](Cc1ccc(O)c(I)c1)C(=O)O; pH 7.4, 25 °C, with: dithionite).
With `ART1 (Homo sapiens, UniProt P52961)` the kcat was 9 ± 1.8 s⁻¹ (COC(=O)[C@H](CCCNC(=N)N)NC(C)=O; pH 7.5, 25 °C, HEPES 50 mM, with: saturating NAD+).
`B3 (enzyme)` gave a kcat of 1 ± 0.1 s⁻¹ (O=C(O)CCS; pH 8, 25 °C, with: O2).
With `B4 (enzyme)` the kcat was 0.07 ± 0.00667 s⁻¹ (O=[N+]([O-])c1ccc(OP(=O)(O)O)cc1; 37 °C, with: Ni2+ 0.25 mM).
`B5 (enzyme)` has a kcat of 14.6 ± 1.2 s⁻¹ (CC(=O)N[C@H]1[C@H](Oc2ccc([N+](=O)[O-])cc2)O[C@H](CO)[C@@H](O)[C@@H]1O[C@@H]1O[C@H](CO)[C@H](O)[C@H](O)[C@H]1O; pH 6, 50 °C).
The kcat of `B6 (acsA)` is reported as 0.217 ± 0.0167 s⁻¹ (CCCC(=O)O; pH 7).
`enzyme K46A (Homo sapiens, UniProt Q08623)` has a kcat of 0.733 s⁻¹ (O=c1[nH]cc([C@@H]2O[C@H](COP(=O)(O)O)[C@@H](O)[C@H]2O)c(=O)[nH]1; pH 7, 25 °C).
The kcat of `B7 (enzyme)` is reported as 0.39 ± 0.01 s⁻¹ (O=P(O)(O)OP(=O)(O)OP(=O)(O)OC[C@H]1O[C@@H](n2cnc3c(O)ncnc32)[C@H](O)[C@@H]1O; with: Mn2+).
`B8 (enzyme)` has a kcat of 4.1 ± 0.15 s⁻¹ (C[C@@H]1O[C@H](OP(=O)(O)OP(=O)(O)OC[C@H]2O[C@@H](n3cnc4c(=O)[nH]c(N)nc43)[C@H](O)[C@@H]2O)[C@@H](O)[C@H](O)[C@@H]1O; pH 7.5, 25 °C, apparent).
The kcat of `B9 (enzyme)` is reported as 25.8 ± 1.57 s⁻¹ (C[C@H](CCC(=O)N[C@@H](Cc1ccc(O)cc1)C(=O)O)[C@H]1CC[C@H]2[C@@H]3[C@H](O)C[C@@H]4C[C@H](O)CC[C@]4(C)[C@H]3C[C@H](O)[C@]12C; pH 6.2, 37 °C).
`B10 (enzyme)` has a kcat of 248 ± 36 s⁻¹ (O=C(CO)COP(=O)(O)O; pH 7.5, with: NADH 500 µM).
For `B11 (enzyme H476A)`, the kcat was 0.008 ± 0.001 s⁻¹ (Nc1ncnc2c1ncn2[C@@H]1O[C@H](COP(=O)(O)OP(=O)(O)OP(=O)(O)O)[C@@H](O)[C@H]1O; pH 8.5, 25 °C, apparent, anoxic, with: L-Thr 10 mM).
For `B12 (enzyme)`, the kcat was 0.00267 s⁻¹ (Nc1nc2c(ncn2[C@@H]2O[C@H](COP(=O)(O)OP(=O)(O)OP(=O)(O)O)[C@@H](O)[C@H]2O)c(=O)[nH]1; pH 7.4, apparent, with: MglA 2 µM, MglB 4 µM).
With `B13 (bjaI)` the kcat was 0.045 ± 0.00333 s⁻¹ (CC(C)CC(=O)SCCNC(=O)CCNC(=O)[C@H](O)C(C)(C)COP(=O)(O)OP(=O)(O)OC[C@H]1O[C@@H](n2cnc3c(N)ncnc32)[C@H](O)[C@@H]1OP(=O)(O)O; pH 7.3, with: 30 µM DCPIP, 331 µM SAM).
The kcat of `B14 (enzyme)` is reported as 2.2 ± 0.13 s⁻¹ (Nc1nc2c(ncn2[C@H]2C[C@H](O)[C@@H](CO)O2)c(=O)[nH]1).

Excerpt of the above:
`B10 (enzyme)` has a kcat of 248 ± 36 s⁻¹ (O=C(CO)COP(=O)(O)O; pH 7.5, with: NADH 500 µM).
For `B11 (enzyme H476A)`, the kcat was 0.008 ± 0.001 s⁻¹ (Nc1ncnc2c1ncn2[C@@H]1O[C@H](COP(=O)(O)OP(=O)(O)OP(=O)(O)O)[C@@H](O)[C@H]1O; pH 8.5, 25 °C, apparent, anoxic, with: L-Thr 10 mM).
